Published values collected from several papers.
Parts stem from different laboratories: compare values within a part only. Changes are numbered by the printed parent chain.

Set 1 — technique: RNA Bind-n-Seq; form: RNA; sample: in vitro; concentration: not given; reference: input RNA pool; direction: higher = stronger binding
Target: RING finger protein unkempt homolog, zinc fingers 1-6, GST-SBP tag (UNK, Homo sapiens, UniProt Q9C0B0, residues 30-357)
Setting: RNA with constant flanks, human and mouse sites, ends assumed
All sequences stand within: GGGAGUUCUACAGUCCGACGAUC … CAACAGAGGAUUGAGCAUCA
Target sequence (chain): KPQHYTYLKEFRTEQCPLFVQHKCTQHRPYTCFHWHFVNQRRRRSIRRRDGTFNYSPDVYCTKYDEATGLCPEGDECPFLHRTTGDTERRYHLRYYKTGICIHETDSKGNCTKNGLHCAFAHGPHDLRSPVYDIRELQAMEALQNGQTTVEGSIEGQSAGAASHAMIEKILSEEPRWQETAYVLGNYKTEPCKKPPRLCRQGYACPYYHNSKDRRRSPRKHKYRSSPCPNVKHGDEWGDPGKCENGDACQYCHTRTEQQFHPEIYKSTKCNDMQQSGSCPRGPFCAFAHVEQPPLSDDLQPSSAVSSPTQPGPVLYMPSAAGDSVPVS
Strand | bound/input enrichment [ratio]
CUUACACCAAGCAUAGGAGCCAAGGAGAAGGAGCAACAUGUAGCUUUAGUCACCUCUACAUUACCACCGUUACCUUUGCCUCCCAUGCUGCCUGAAGAUAAAGAAGCUGAUAGCUUACGA | 0.171
GCAUGUGGCGAGAUCUCACUGAUGAAGAAAAACAAGAAUAUUUAAACGAAUACGAAGCAGAAAAGAUAGAGUACAAUGAAUCUAUGAAGGCCUAUCAUAAUUCCCCCGCGUACCUUGCUU | 0.529
UAUUUAAGUUAUUAGACUUGCUAAUACAAGCAUACAUGUGCAACAGCUACUGGAUACUGAUAGCUAUCAAACCUCAAAUUUAAAGAUUUUCCUUCAUGGAAAAGUUACUAUACUUUGCAA | 0.412
AACAAUGAUAUUAGUAGUCUGCCCUGCUCAUUGGGAAAUCUUCAUUUGAAAUUCCUGGCACUAGAAGGAAAUCCUCUAAGAACCAUUCGAAGAGAAAUUAUAGCUAAAGGAACUCAAGAA | 0.228
GCAAAACUUUACAGAUACGAUAAAGAUGUUGGCCAGUGGAAAGAAAGAGGCAUUGGAGAUAUAAAGAUCUUACAGAAUUAUGAUAAUAAACAAGUUCGCAUCGUGAUGAGAAGGGACCAG | 0.559
AAGAAGAAGCAAGGGGAAGAUAACUCUCACACACAGGACACAGAAGACCUAGAAAAGGACACUAGAGAAGAGCUUCCAGUGAAUACCUCAAAAGCCCGACCAAAACAGGAGAAAGCUUGU | 0.587
CGGACUGCUGGAGAUGGUGGAGUCCGUCAUGCCGGUGGUGGUGUGCACAUUGAGCCCCGGUAUAGACAGUUCCCCCAGCUGACCAGAUCCCAGGUGUUCCAGAGCGAGUUCUUCAGCGGA | 0.0623
AACAGAAUCAAACUAAGCCAUGUAUGAGGGUAAUCGAGAUGAGGAUAUUAACUCAAAAGAAAUAGGGUGAUUUUUAAAGGAUUAAUAAAAUUCUGAAAUGUUAAGUAGAAGAUUACAUUG | 0.657
GCUAAGAUUGGGCUUAUUCAGUUUUGCUUAUCUGCUCCUAAAACAGAUAUGGAUAAUCAAAUAGUAGUAUCUGACUAUGCCCAGAUGGAUCGAGUGCUUCGAGAGGAGAGAGCCUAUAUU | 0.224

Set 2 — target: CCNE1, cyclin fold, Cln2 fusion (human); technique: yeast growth competition, sequencing; sample: yeast; setting: strong parent motif; reference: not given; direction: higher = stronger binding
Starting sequence: CDC25A docking peptide (human); PPHRRRLLFACSP
Substitution | normalised enrichment score
H3C | 3.8
P1V | 0.848
C11A | 1.36
L8F | 2.4
L8Y | 2.08
L7F | 0.768
P1Q | 1.21
L8A | 1.29
L8G | 0.628
P2I | 1.07
C11E | 2.58

Set 3 — technique: DHFR PCA, deep sequencing; sample: yeast; together with: (+)-ABA 710 µM; reference: wild-type fitted maximum; direction: higher = stronger binding
Target: ABI1, truncated, D143A, DHFR fusion (Arabidopsis thaliana)
Setting: methotrexate growth selection, single substitutions
Starting sequence: PYL1, truncated, DHFR fusion (Arabidopsis thaliana); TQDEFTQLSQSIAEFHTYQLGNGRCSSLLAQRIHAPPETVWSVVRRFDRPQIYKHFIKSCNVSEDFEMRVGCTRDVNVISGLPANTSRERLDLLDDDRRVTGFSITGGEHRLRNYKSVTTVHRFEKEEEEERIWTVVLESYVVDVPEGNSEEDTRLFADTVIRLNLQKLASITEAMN; partner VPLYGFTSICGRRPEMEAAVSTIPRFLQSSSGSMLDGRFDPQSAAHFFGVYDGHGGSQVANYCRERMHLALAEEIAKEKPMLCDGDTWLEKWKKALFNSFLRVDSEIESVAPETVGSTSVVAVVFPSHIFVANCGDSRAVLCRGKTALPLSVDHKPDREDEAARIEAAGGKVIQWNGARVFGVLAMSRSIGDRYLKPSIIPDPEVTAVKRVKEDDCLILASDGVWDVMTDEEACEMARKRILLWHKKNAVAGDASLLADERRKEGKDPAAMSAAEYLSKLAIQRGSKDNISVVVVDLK
Substitution | relative binding score
N165E | 6.58%
D65P | 103%
K126P | 114%
S63E | 105%
F47N | -4.76%

Other studies, line by line
Substance | target | assay | test system | setting | scale | quantity | result
PhoQ, residues 284 288 289 292 302 303 AGGCYF | PhoP, residues 12 14 15 18 19 SEGLL (Escherichia coli, UniProt P23836) | Sort-seq, refers to: YFP reporter | E. coli | PhoQ-PhoP variant library, together with: 10 µM Mg2+ | reference: high Mg2+ state, higher = stronger signaling | fold induction | 12.5

A few entries again (set 2):
Substitution | normalised enrichment score
L8A | 1.29
L8G | 0.628
P2I | 1.07
C11E | 2.58
